{"data": "Experimental data of several laboratories", "note": "Each numbered part is a random draw from the data of one study; scales do not carry over between parts."}
{"data": "Sample 1", "target": "Sal-like protein 4, full length isoform B (SALL4, Homo sapiens, UniProt Q9UJQ4-2, residues 1-616)", "technique": "universal PBM", "molecule type": "double-stranded DNA, one strand shown", "sample": "in vitro", "concentration": "not given", "setting": "8-mer, flanks averaged, mean of replicates", "reading": "higher = stronger binding"}
{"Sequence": "AACAATGC", "E-score": 0.121}
{"Sequence": "ACAACCAC", "E-score": -0.0205}
{"Sequence": "ACACCTAC", "E-score": 0.131}
{"Sequence": "ACGACGAT", "E-score": -0.0105}
{"Sequence": "TCTCGAAA", "E-score": 0.00227}
{"Sequence": "CGATAGAG", "E-score": -0.0186}
{"Sequence": "ACACGATG", "E-score": 0.0432}
{"Sequence": "GACGTACC", "E-score": -0.0921}
{"Sequence": "AGGACAAC", "E-score": -0.025}
{"Sequence": "CAGCTGCC", "E-score": -0.258}
{"Sequence": "AGACCTAC", "E-score": -0.0108}
{"Sequence": "ACGGCCTC", "E-score": -0.25}
{"Sequence": "ACCGGGTC", "E-score": -0.296}
{"Sequence": "ATAACAAT", "E-score": 0.366}
{"Sequence": "AACGGACT", "E-score": -0.0312}
{"Sequence": "CGAAGCGC", "E-score": -0.224}
{"Sequence": "ACTCTTTC", "E-score": -0.0261}
{"Sequence": "CATCATCC", "E-score": -0.0958}
{"Sequence": "GACTACCA", "E-score": 0.0596}
{"Sequence": "CATTAAAA", "E-score": 0.305}
{"Sequence": "CAGTGGAC", "E-score": -0.102}
{"Sequence": "AATCGGGG", "E-score": -0.189}
{"Sequence": "TAAGCAGA", "E-score": -0.0529}
{"data": "Sample 2", "target": "Fragile X messenger ribonucleoprotein 1, C-terminal low-complexity region (Fmr1, Mus musculus, UniProt P35922)", "technique": "RNA Bind-n-Seq", "molecule type": "RNA", "sample": "in vitro", "concentration": "200 nM", "setting": "whole 134-nt RNA, ends assumed", "with": "150 mM LiCl", "reference": "input library", "reading": "higher = stronger binding", "each molecule": "7-deaza-guanosine replaces G", "shared flanks, not repeated": "GGGAGUUCUACAGUCCGACGAUC … UGGAAUUCUCGGGUGUCAAGG"}
{"Sequence": "ACCAUGCAGGUGGGCAUCUUUGGGAAGUGGGGCAAGGGGGGGAUAGGGAGGGGGGUAACACUUUGGUAACAGGUGGUCCCAGGUCGUUUC", "log2 enrichment": 1.16}
{"Sequence": "AAGUCCUGUGCUACACAUCGUAUGUACCGAAUCGGGUUUUGGGGUUUUGGUUUUGGAAAGUAUUAUGUUACGCCGUUCGGAUCUGCACUU", "log2 enrichment": -1.9}
{"Sequence": "AGUCCUGUGCUACACAUCGUAUGUACCGAAUCGGGUUUUUGGGAAAGGGAAAAAGGGAAAGUAUUAUGUUACGCCGUUCGGAUCUGCACU", "log2 enrichment": -1.52}
{"Sequence": "CCUCAAGUCCUGUGCUACACAUCGUAUGUACCGAAUCGGAAGGAAGGGGAAGGAAAGUAUUAUGUUACGCCGUUCGGAUCUGCACUUCCA", "log2 enrichment": -1.03}
{"Sequence": "AGUCCUGUGCUACACAUCGUAUGUACCGAAUCGGGUUUUGGGUUUUGGGGUUUUGGGGAAAGUAUUAUGUUACGCCGUUCGGAUCUGCAC", "log2 enrichment": -0.415}
{"Sequence": "UCAAGUCCUGUGCUACACAUCGUAUGUACCGAAUCGGCCCGGGCCCGGGCCCGGGAAAGUAUUAUGUUACGCCGUUCGGAUCUGCACUUC", "log2 enrichment": -1.27}
{"Sequence": "AAGUCCUGUGCUACACAUCGUAUGUACCGAAUCGGAAAAAAAGGUGGUUUUUUUGGAAAGUAUUAUGUUACGCCGUUCGGAUCUGCACUU", "log2 enrichment": -2.68}
{"Sequence": "UGGCCCUGGUGGCAUGCGGGGAGGACGAGGUGGCCUCAUGGAUCGUGGUGGUCCCGGUGGAAUGUUCAGAGGUGGCCGUGGUGGAGACAG", "log2 enrichment": -0.461}
{"data": "Sample 3", "target": "Histone acetyltransferase KAT6A, both winged helices, GST fusion (KAT6A, Homo sapiens, UniProt Q92794, residues 1-181)", "technique": "protein binding microarray", "molecule type": "double-stranded DNA, one strand shown", "sample": "in vitro", "concentration": "not given", "setting": "8-mer, flanks averaged, mean of 2 arrays, mostly near background", "reference": "not given", "reading": "higher = stronger binding", "Target sequence (chain)": "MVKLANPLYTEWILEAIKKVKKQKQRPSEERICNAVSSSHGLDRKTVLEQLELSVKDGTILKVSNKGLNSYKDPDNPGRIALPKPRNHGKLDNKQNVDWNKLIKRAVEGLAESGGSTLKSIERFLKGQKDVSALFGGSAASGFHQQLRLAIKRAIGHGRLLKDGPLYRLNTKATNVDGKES"}
{"Sequence": "AATTATGG", "E-score": 0.0184}
{"Sequence": "ACGTTTAC", "E-score": 0.0227}
{"Sequence": "CGATGTTC", "E-score": 0.00889}
{"Sequence": "CCAGTACA", "E-score": -0.19}
{"Sequence": "AGGCTACA", "E-score": -0.265}
{"Sequence": "ATCCCTTG", "E-score": -0.188}
{"Sequence": "CATTTACC", "E-score": -0.149}
{"Sequence": "AATTACTG", "E-score": -0.137}
{"Sequence": "ACGAGGGC", "E-score": -0.0483}
{"Sequence": "CCAAGCCA", "E-score": -0.142}
{"Sequence": "CATCTAGC", "E-score": -0.149}
{"Sequence": "CCCTAATA", "E-score": -0.265}
{"Sequence": "CGAAAAGC", "E-score": 0.111}
{"Sequence": "AATAACCG", "E-score": 0.151}
{"Sequence": "GGTAGAAC", "E-score": -0.107}
{"Sequence": "ACAGGTTA", "E-score": -0.164}
{"Sequence": "GGAACGTA", "E-score": -0.0426}
{"Sequence": "CTCATATC", "E-score": -0.131}
{"Sequence": "ATATAGAG", "E-score": 0.000715}
{"data": "Sample 4", "target": "RNA binding protein fox-1 homolog 2, RRM domain, GST-SBP tag (RBFOX2, Homo sapiens, UniProt O43251-10, residues 100-194)", "technique": "RNA Bind-n-Seq", "molecule type": "RNA", "sample": "in vitro", "concentration": "365 nM", "setting": "natural RNA segment, single round, ends assumed", "reference": "no-protein control", "reading": "higher = stronger binding", "shared flanks, not repeated": "GGGAGUUCUACAGUCCGACGAUC … UGGAAUUCUCGGGUGCCAA", "Construct (chain)": "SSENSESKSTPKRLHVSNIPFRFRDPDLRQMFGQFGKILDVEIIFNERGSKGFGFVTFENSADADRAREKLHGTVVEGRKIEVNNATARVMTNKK"}
{"Sequence": "GACAGCAAAACAUCUUAAAUGAUGACUGUAGUUAAUCAGAUGUGACCCCUCUAGGGCCCCUGGUUGGAAGGCUCAGGGUUGAAGCGGGGCCUAGGAGCAAGAACAAGAUU", "RBNS enrichment (R)": 0.375}
{"Sequence": "GGGUAGACAGGGGCGACCUGUGAUUGUUGUUAUUGAUGUUGUUGUUGAUGGCAAAAAAAAAAAAGCGACUUCGAGUUUGCUCCCCUUUGCUUGAAGAGACCCCCUCCCCC", "RBNS enrichment (R)": 0.58}
{"Sequence": "UUUACCUCAGAAGCAGUGACAGCCGCAGAAACCACAGAGGCGCUCCGCGCUGAAGAACUUACCGAAGCAUCAGGGGCAGAAGAGACCACAGACAUGGUGUCUGCAGUUUC", "RBNS enrichment (R)": 0.229}
{"Sequence": "GCCUGGUGUGCUCUGGGAUGUGCAAGGUGGAGCAGGCCUGUCAGUCAGCCUGCUGCUGCAUCUGUUCUCAGCUUCUUGGUUGGCUGGCUGAGUGGAGCACCCACCCAAAC", "RBNS enrichment (R)": 0.538}
{"Sequence": "GUGAUUCCCAUUGGUGUAGGAAAUGAGACCCUCUCUGAAGCUGAGGAGAGCACGUUGAUCUGAACUUUAAAUCAAUCAGUGCUGCUGGCACAAUGAAAGGUGGAACUGCA", "RBNS enrichment (R)": 5.25}
{"Sequence": "GGAUUGGACACAUACACAGCAUGUUCUUUCCAGCUCCUUGUCACCGAGAGAUAGAAAAUCUUUAUCUGUCCUUCUUGCUCCCUGACAUUAAUAAAUUUUUCUGAAGUCUC", "RBNS enrichment (R)": 13}
{"Sequence": "AGAGGUGCAAACAGCGAGCGAUUAAGAACUGUUGGUCAACUGUUACGAGACUAUAAAAGGCUUAGCCACACUACGGGACAAAUUGUGUUGUGAAUUCGCAUUGCUGUUUU", "RBNS enrichment (R)": 0.498}
{"Sequence": "CCUCCUUCCCCGUACUUUGUCCCGUGGCAUUUCAAUUCCUGGCCCUGUUCUCCUCCCCAAGUCGGCACCCUUUAACUCAUGAGGAGGGAAAAGAGUGCCUAAGCGGGGGU", "RBNS enrichment (R)": 0.69}
{"note": "A few entries again (sample 1):"}
{"Sequence": "ACAACCAC", "E-score": -0.0205}
{"Sequence": "ATAACAAT", "E-score": 0.366}
{"Sequence": "CAGCTGCC", "E-score": -0.258}
{"Sequence": "CAGTGGAC", "E-score": -0.102}
{"Sequence": "GACGTACC", "E-score": -0.0921}
{"Sequence": "ACTCTTTC", "E-score": -0.0261}
